Published values collected from several papers.
Each numbered part is a random draw from the data of one study; scales do not carry over between parts.

Series 1
Target: Fragile X messenger ribonucleoprotein 1, C-terminal low-complexity region (Fmr1, Mus musculus, UniProt P35922)
Method: RNA Bind-n-Seq
Form: RNA
Medium: in vitro
Concentration: 200 nM
Notes: whole 134-nt RNA, ends assumed
Added: 150 mM LiCl
Baseline: input library
Direction: higher = stronger binding
Endpoint: log2 enrichment
All molecules: 7-deaza-guanosine replaces G
Constant ends, left off below: GGGAGUUCUACAGUCCGACGAUC … UGGAAUUCUCGGGUGUCAAGG
CCUGUGCUACACAUCGUAUGUACCGAAUCGGGAAAAAAAGGGAAAAAAAGGGUUUUUGGGAAAGUAUUAUGUUACGCCGUUCGGAUCUGC: -1.98
CUGUGCUACACAUCGUAUGUACCGAAUCGGGGUUUUUUUGGGUUUUUUUGGUUUUUUUGGGGAAAGUAUUAUGUUACGCCGUUCGGAUCU: 0.996
CACAGACAACACGCACCCACACAGACACAGAGGGAAGGGGUUGGGAUGGGGACAGGGUGCACAGCAGCGCGGGGUAGGACCCCAGCCCCU: 0.00299
CUCAAGUCCUGUGCUACACAUCGUAUGUACCGAAUCGGGUUGGGGUUGGUUGGAAAGUAUUAUGUUACGCCGUUCGGAUCUGCACUUCCA: -0.151
UCAAGUCCUGUGCUACACAUCGUAUGUACCGAAUCGGAGGUUUUUGGUUUUUGGAAAGUAUUAUGUUACGCCGUUCGGAUCUGCACUUCC: -1.24
UAACUUAAGAGGAGGAUCUGAUGGAUAUGGCAGUGGACGUGGAUUUGGGGAUGGCUAUAAUGGGUAUGGAGGAGGACCUGGAGGUGGCAA: 0.658
GUCCUGUGCUACACAUCGUAUGUACCGAAUCAAACCCCCAAACCCCCCCAAAUUUAAAAAAGUAUUAUGUUACGCCGUUCGGAUCUGCAC: 1.3
UGGGAGGUGGAUUUUGUUGAUUUUUUUAGCUCAUUUCCAGGGGUGGGAAUUUUUUUUUAAUAUGUGUCAUGAAUAAAGUUGUUUUUGAAA: 0.293

Series 2
Target: Interferon regulatory factor 5, full length, phosphomimetic (IRF5, Homo sapiens, UniProt Q13568-2, residues 1-514, K96S/S451D/S453D/S456D/S462D)
Method: protein-binding microarray
Form: double-stranded DNA, one strand shown
Medium: in vitro
Concentration: 250 nM
Notes: 60-bp whole probe
Added: salmon DNA 0.4 mg/ml
Baseline: random background probes
Direction: higher = stronger binding
Endpoint: log fluorescence
Constant ends, left off below: GCCTAGCAC … GTCTTGATTCGCTTGACGCTGCTG
GGCGGTTCCCTTTTCCTGACGTGCTAG: -0.233 z-score
TGTCCTTTCACTTTAACTTAGTGCTAG: 5.4 z-score
TCTCGCTTCATCTCCCAGACTGTGCTA: 1 z-score
TTAGATATCGGGACTGGGTTAGTGCTA: 0.945 z-score
TTAGATTTCAGCCTCGATTAGTGCTAG: 0.649 z-score
GACGGTTTCGGATCCGGGACGTGCTAG: 5.11 z-score
CTGTTTCCATCTCTCAAAAGGTGCTAG: 2.11 z-score
TTAGATTCTAGTTTCGATTAGTGCTAG: 9.7 z-score
CAATATATATATTATATATTTGTGCTA: 0.97 z-score
TCATGCTTGTATCTGGGACTGTGCTAG: 0.0227 z-score
GGTCTGGCTGGCTCCTGCACGTGCTAG: -0.989 z-score
TCAGCATACCATATCAGACTGTGCTAG: 0.0587 z-score
CTAATTTTCATTTTCCAAATGTGCTAG: 3.09 z-score
TCACTACTGCATTTTTTACTGTGCTAG: 0.72 z-score
GACGGTTTCCTTTCCCCGACGTGCTAG: 1.44 z-score
GACGATCACAGTTTCGAGACGTGCTAG: 4.16 z-score
CCCTTAAAAGACGTGCCAATGTGCTAG: -0.155 z-score
TTAGGACTGGGTTTCTGTTAGTGCTAG: 2.06 z-score
GGAGTTTTCTCATTCGTCATGTGCTAG: 0.766 z-score

Series 3
Target: RNA binding protein fox-1 homolog 2, RRM domain, GST-SBP tag (RBFOX2, Homo sapiens, UniProt O43251-10, residues 100-194)
Method: RNA Bind-n-Seq
Form: RNA
Medium: in vitro
Concentration: 365 nM
Notes: natural RNA segment, single round, ends assumed
Baseline: no-protein control
Direction: higher = stronger binding
Endpoint: RBNS enrichment (R)
Constant ends, left off below: GGGAGUUCUACAGUCCGACGAUC … UGGAAUUCUCGGGUGCCAA
Construct (chain): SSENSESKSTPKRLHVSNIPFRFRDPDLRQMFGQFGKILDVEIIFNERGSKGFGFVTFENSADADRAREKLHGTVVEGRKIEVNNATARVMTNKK
GUCCUGCAUUUUAUUGACUGGGGUUUGAUCUCAGCUUCUGAAAAUGUUUAAAAAUUGGAAGGAAAUACUACUCAUAUCUUCAUUGUCACUUUGUCUUACCUCAAUUGAGU: 0.548
ACUUUUGAGGCACUUUUCAAAUUUAAUAAGGAACCAUGUAAGGGUAGCAGCCCCUCCCUAAAGCAUUCUGAGGUAAGGAGGUAUCCAUUCUUCAAAUGAAUGUGAGUGAA: 5.11
UUUGUUAAGUUAUCAGCCACGUCUGCAUCACAGACUACAGGUACUACCAUUUAGCGGAGUUAUCUUUGAAAAGACAUCAACAUCCCUGUGCAUUUGUCAGUCUGGUAGAG: 0.413
GUAUGUUUCUAUAUUUUGAAACAGGUAUGUAACUUCUUCAUUUGAAGGAUAAGCUGGUUUGUGUUAAGCAGUAUAAUAUUGAUUGGGUCUUUCGCAUCAUAUUCGUUAGC: 0.452
AGUUUAAAUGGAUUACAUUUGGUGUAUAUUGUCUUCAUUGAAAAGAUAUUGUUGGAUAUGCCACAUCAGAGUUAGCAUUGACUUAUAAAUAAAUACCAGAAUUUACCAGA: 1.08
UGCUGUAUUUAUGUGCUUCAUAAGGCCCUGCUCUGUCUGCUAAAGCUAUGAAGAAAGAUGUGCAGAGACUGGGGUGGAGACUAAGCCAAAGAGGAGCUGCCUAGCCUGGC: 0.621
GAGGAAGUUCCCGGCCUGGGGGCUUUAUCCAGGGGUCCCAGUCGAGAGUGGCCCGAGGCCGUCCCUCACCGGGCAUGUUCCCUCUGGCUGCCCACUCCCUCAGGGCCCAC: 0.32
UGUCCCUCAGUGCCUUCUCUCAGCUCCCAGGCCAAUGGCGGCCAGCCUUCCCCAAGACAAUGAGGUUUGCCUGCACCCUGGCCUGCUACCUGGACUUUGCCUGGUGCCUU: 0.518

Series 4
Target: RING finger protein unkempt homolog, zinc fingers 1-6, SBP tag (UNK, Homo sapiens, UniProt Q9C0B0, residues 30-357)
UniProt Q9C0B0, sequence (30-357, looked up): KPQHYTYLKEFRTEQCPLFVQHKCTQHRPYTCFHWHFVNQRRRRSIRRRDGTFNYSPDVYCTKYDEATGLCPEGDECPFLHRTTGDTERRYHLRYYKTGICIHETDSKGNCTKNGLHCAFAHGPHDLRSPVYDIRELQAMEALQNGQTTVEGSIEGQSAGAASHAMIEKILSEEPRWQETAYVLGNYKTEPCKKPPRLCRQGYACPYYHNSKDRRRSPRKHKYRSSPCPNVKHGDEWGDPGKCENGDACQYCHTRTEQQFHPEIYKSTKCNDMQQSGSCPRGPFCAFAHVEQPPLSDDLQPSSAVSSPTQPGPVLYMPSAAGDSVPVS
Method: RNA Bind-n-Seq
Form: RNA
Medium: in vitro
Concentration: 100 nM
Notes: RNA with constant flanks, vertebrate orthologous sites, ends assumed
Baseline: input RNA pool
Direction: higher = stronger binding
Endpoint: bound/input enrichment
Constant ends, left off below: GGGAGUUCUACAGUCCGACGAUC … CAACAGAGGAUUGAGCAUCA
UGGGUUACUCCUAUUAUUAUCAAGUAGCUGGAAUUGUGAAGGUUGGAGUAGUUAGAUCUUUAGCUUUUAUUCCUUAUUUUUUUUUUUGUAUUACUCUCCAUGUGUAUAAAUUAUUGAUCA: 5.44 ratio
GUCUAGUGCUUAAGCCAGCAAUUGUAGAAUGCUAUUUAUUUGUGUCUGUAAGUUUGUACAUAUCUUAACCUCAUAUUGUUGCUGAGUUUCAUUUUGAGGAAAGUGAGUUUGAGUUUUAUU: 0.948 ratio
CAUUGUAUCCUGCUGUAUAAUAAACAAUCUUAAACAUUUAUCAACUGUUGAUACAAAUGUUAGUCCCUAACCACUUUUUAUAUGUUUUAAAUUUUUGAAAUUCAAGUGUACCUGCCAUAA: 1.25 ratio
CUGUUGUGUGAAACAUGUCUACCUGGGAAAGUAACACACUAUAAAUACUGUUAAACAAUUUAGCUAUAUUAUUUUAAAAUAUUGUAUGUCUAGCGGUUAAAAUGAAUUUCAGAGUAAAAG: 0.54 ratio
AGAAAACUUUAGCCAAGAAUCUGAAAGUAGAAAUACUGGUUCCUGGUUGUCCUCCUCUCUAAGAAAUAGAUGCACACCCUUAUUUUCAAGGAGACGUCGAGAAGGAAGAGAUGAGUCUAC: 0.273 ratio
CUCUAUGGGCCUCGCAGAGUUGAAAUAAUGGAAGAGGAAAGUGAACAGUAAUCUCCAUUUUAGUAUUUAUGCUUAGGUGUGAAAUAAAUGUUAUUUGUUGAUCAUUUCUAUAAUCCAGAG: 0.876 ratio
GAGAUUCCCCAUUGUCACUGAGAACCACCAAAUCUGACUUUUACAUUUGGUCUCAGAAUUUAGGUUCCUGCCCUGUUGGUUUUUUUGUUUUGUUUUUAAACAGUUUUCAAAAGUUCUUAA: 0.322 ratio
GGGAUAUAUUGAAUAGUAUUAAACAUUUUCAUCUUCCUUUACCUUUUAUCCCUUAAUAUCUAGUCUACUUUUUUAAAUUUCAGACUUCAAUGCUCUUUGAAUUGAUAAUUCCAAUUUUCA: 1.6 ratio

A few entries again (series 2):
TTAGATTTCAGCCTCGATTAGTGCTAG: 0.649 z-score
GACGGTTTCGGATCCGGGACGTGCTAG: 5.11 z-score
CTGTTTCCATCTCTCAAAAGGTGCTAG: 2.11 z-score
TTAGATTCTAGTTTCGATTAGTGCTAG: 9.7 z-score
CAATATATATATTATATATTTGTGCTA: 0.97 z-score
TCATGCTTGTATCTGGGACTGTGCTAG: 0.0227 z-score
